Published values from different studies.
Protocols differ between the studies behind these lines. ± marks the error that the study gave.
Organism: Escherichia coli

| Structure (SMILES) | assay | test system | conditions | how to read | endpoint | result |
| --- | --- | --- | --- | --- | --- | --- |
| NC[C@@H](NC[C@@H]1CCCN1C[C@@H](CO)NC[C@@H](NCCc1ccc(Cl)c(Cl)c1)c1ccccc1)c1ccccc1 | bacterial growth | – | compound alone | – | IC50 | 11.7 µM |
| O=S(=O)(O)c1ccc2cc(S(=O)(=O)O)ccc2c1 | bacterial growth, broth microdilution | expressing OXA-48 | 16 µg/mL, added: ampicillin | MIC of ampicillin | MIC of ampicillin | 256 µg/mL |
| CC(C)[C@H](NC(=O)N[C@@H](CCCCN)C(=O)N[C@@H](CNC(=O)CCCCCCCCCCS)C(=O)NCCCNC(C[C@H]1O[C@@H](n2ccc(=O)[nH]c2=O)[C@H](O)[C@@H]1O)C(=O)O)C(=O)O (stereo partly drawn) | growth | delta tolC | – | – | IC50 | 23 ± 6 µM |
| CC(C)Oc1c(NC(=O)c2ccc(NC(=O)[C@H](CC(N)=O)NC(=O)c3cc(F)c(/N=N/c4c(Cl)cc(C#N)cc4Cl)c(F)c3)cc2)ccc(C(=O)N/N=C/c2c(F)cc(C(=O)O)cc2F)c1O | – | BW25113 | dark-adapted ground state | – | MIC | > 6.4 µg/mL |
| O=S(=O)(O)c1ccc2c(c1)Cc1cc(S(=O)(=O)O)ccc1-2 | bacterial growth, inhibitor, broth microdilution | expressing OXA-48 | 256 µg/mL, added: ampicillin | relative to: ampicillin alone | MIC fold reduction | 16 fold |
| CC(CCN[C@H](CN[C@H](CO)CN1CCC[C@H]1CN[C@H](CN)c1ccccc1)c1ccccc1)c1ccccc1 (stereo partly drawn) | bacterial growth | – | 16 µM, fold shift of IC50, added: amikacin | – | potentiation of amikacin | 3.5 fold |
| O=S(=O)(O)c1ccc(-c2ccc(S(=O)(=O)O)cc2)cc1 | bacterial growth, broth microdilution | expressing OXA-48 | 4 µg/mL, added: ampicillin | MIC of ampicillin | MIC of ampicillin | 512 µg/mL |
| NC[C@@H](NC[C@@H]1CCCN1C[C@@H](CO)NC[C@@H](NCCC1CC2CCC1C2)c1ccccc1)c1ccccc1 (stereo partly drawn) | bacterial growth | – | compound alone | – | IC90 | > 24 µM |
| C[C@H](CS)C(=O)N[C@H](Cc1c[nH]c2ccccc12)C(=O)O | – | VIM-1 producing | 50 µM, added: meropenem | – | MIC of meropenem | 0.25 µg/mL |
